Experimental data of several laboratories.
Each numbered part is a random draw from the data of one study; scales do not carry over between parts. Positions count from the first letter of the parent shown.

Set 1
Target: Histone acetyltransferase KAT6A, winged helix 1, GST fusion (KAT6A, Homo sapiens, UniProt Q92794, residues 1-85)
Technique: protein binding microarray
Form: double-stranded DNA, one strand shown
Matrix: in vitro
Concentration: not given
Notes: 8-mer, flanks averaged, mean of 2 arrays, mostly near background
Baseline: not given
Direction: higher = stronger binding
Construct (chain): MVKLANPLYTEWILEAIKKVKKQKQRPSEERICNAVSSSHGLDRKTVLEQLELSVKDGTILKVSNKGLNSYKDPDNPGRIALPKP
Sequence | E-score
CACACGAG | -0.125
ATGTGCTG | -0.169
AATCTCAA | -0.219
GAATGCAC | -0.0699
ATCGTCTG | 0.0253
CTGCCCAC | -0.232
CCCCATAA | -0.219
ACAAGCGT | 0.0106
GTCGGCCA | 0.125
TGCGGACA | 0.213
TCAACGCA | 0.0266
GGAAAAAA | 0.023
AGCGAGGG | -0.0422
GGGTACCC | 0.161
GTCTAGCA | -0.116
AGGAGAAA | -0.183
CCTGCGTC | 0.021

Set 2
Target: ABI1, truncated, D143A, DHFR fusion (Arabidopsis thaliana)
Technique: DHFR PCA, deep sequencing
Matrix: yeast
Notes: methotrexate growth selection, single substitutions
With: (+)-ABA 710 µM
Baseline: wild-type fitted maximum
Direction: higher = stronger binding
Parent: PYL1, truncated, DHFR fusion (Arabidopsis thaliana); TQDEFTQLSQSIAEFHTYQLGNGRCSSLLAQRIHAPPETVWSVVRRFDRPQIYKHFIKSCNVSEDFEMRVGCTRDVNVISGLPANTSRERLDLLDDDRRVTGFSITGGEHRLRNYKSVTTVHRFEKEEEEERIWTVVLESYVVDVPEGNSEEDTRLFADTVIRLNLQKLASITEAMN; partner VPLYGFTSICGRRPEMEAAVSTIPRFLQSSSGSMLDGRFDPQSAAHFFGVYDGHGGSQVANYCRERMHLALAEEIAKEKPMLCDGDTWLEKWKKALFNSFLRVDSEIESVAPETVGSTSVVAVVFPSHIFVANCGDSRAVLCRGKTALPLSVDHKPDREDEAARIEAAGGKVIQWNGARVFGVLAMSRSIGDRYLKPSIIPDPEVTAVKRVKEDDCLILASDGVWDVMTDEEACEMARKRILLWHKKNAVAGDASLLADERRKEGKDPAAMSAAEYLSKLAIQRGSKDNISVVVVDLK
Change | relative binding score
L164F | 100%
A158G | 85.8%
Y141F | 90.7%
V136F | 104%
E152I | 97.6%
I57Y | 71%
N22M | 106%
H110R | 17.7%
T106H | 97.6%
R88Y | 104%

Set 3
Target: UBE2O UBC core domain (UniProt Q9C0C9)
UniProt Q9C0C9, sequence (whole entry, looked up): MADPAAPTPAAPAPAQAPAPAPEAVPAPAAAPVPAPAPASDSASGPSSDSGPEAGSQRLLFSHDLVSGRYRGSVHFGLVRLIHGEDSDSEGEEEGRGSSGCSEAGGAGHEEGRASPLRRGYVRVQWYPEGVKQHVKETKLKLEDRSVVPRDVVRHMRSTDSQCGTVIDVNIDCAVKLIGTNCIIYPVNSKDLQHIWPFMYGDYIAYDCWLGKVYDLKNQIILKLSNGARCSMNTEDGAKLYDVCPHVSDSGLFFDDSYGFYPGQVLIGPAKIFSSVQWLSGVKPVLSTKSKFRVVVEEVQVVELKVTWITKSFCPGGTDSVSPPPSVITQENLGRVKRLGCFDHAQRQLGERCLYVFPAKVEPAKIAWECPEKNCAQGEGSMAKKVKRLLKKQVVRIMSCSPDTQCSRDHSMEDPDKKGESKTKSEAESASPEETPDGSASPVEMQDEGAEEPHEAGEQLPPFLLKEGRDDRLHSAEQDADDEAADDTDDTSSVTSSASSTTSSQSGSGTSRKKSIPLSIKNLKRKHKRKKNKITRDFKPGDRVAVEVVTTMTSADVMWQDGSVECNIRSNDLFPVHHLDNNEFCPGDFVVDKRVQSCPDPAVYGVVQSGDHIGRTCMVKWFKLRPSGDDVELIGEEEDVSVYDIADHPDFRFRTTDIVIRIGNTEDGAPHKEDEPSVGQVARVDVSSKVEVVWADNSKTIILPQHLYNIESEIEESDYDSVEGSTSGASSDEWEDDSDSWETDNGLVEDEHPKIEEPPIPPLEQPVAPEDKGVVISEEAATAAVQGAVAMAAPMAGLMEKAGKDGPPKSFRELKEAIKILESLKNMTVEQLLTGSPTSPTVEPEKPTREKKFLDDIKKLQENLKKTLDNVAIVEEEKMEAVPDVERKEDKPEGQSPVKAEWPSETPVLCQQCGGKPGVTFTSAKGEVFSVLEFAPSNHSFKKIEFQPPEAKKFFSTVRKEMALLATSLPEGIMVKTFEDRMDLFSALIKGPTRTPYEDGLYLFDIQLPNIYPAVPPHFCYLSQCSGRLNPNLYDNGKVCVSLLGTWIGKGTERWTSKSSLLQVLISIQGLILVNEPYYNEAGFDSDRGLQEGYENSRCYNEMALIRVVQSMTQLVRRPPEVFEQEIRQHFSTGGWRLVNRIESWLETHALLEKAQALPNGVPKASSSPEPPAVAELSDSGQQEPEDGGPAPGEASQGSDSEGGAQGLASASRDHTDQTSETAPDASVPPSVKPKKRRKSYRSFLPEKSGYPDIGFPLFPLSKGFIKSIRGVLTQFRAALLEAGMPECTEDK
Technique: yeast two-hybrid
Matrix: yeast
Notes: mostly zero background
Baseline: not given
Direction: higher = stronger interaction
B1: RFWD3 RING domain (UniProt Q6PCD5); chain ASMDEEEGDTCTICLEQWTNAGDHRLSALRCGHLFGYRCISTWLKGQVRKCPQCNKKARHSDIVV
B2: UBOX5 RING domain (UniProt O94941); chain EQPGSILGPECASCKRVFSPYFKKEPVYQLPCGHLLCRPCLGEKQRSLPMTCTACQRPVASQDVLR
B3: RNF133 RING domain (UniProt Q8WVZ7); chain DEEINPNGDSCVICFERYKPNDIVRILTCKHFFHKNCIDPWILPHGTCPICKCDILKVLGIQ
Sequence | lacZ reporter activity
B1 (RFWD3 RING domain) | 0
NLSELTPYILCSICKGYLIDATTITECLHTFCKSCIVRHFYYSNRCPKCNIVVHQTQPLY (PCGF6 RING domain (UniProt Q9BYE7)) | 0
B2 (UBOX5 RING domain) | 0
GSDDEEIPFKCFICRQSFQNPVVTKCRHYFCESCALQHFRTTPRCYVCDQQTNGVFNPA (RNF113A RING domain (UniProt O15541)) | 0
YQNEVDDDLVCHICLQPLLQPLDTPCGHTFCYKCLRNFLQEKDFCPLDRKRLHFKLCKK (LNX2 RING domain (UniProt Q8N448)) | 0
B3 (RNF133 RING domain) | 0
PEDRESLKSACVVCLSSFKSCVFLECGHVCSCTECYRALPEPKKCPICRQAITRVIPLY (MUL1 RING domain (UniProt Q969V5)) | 0
GSRLQEINDVCAICYHEFTTSARITPCNHYFHALCLRKWLYIQDTCPMCHQKVYIEDDIK (RNF139 RING domain (UniProt Q8WU17)) | 0
AMYLQENGIDCPKCKFSYALARGGCMHFHCTQCRHQFCSGCYNAFYAKNKC (RNF31 RING domain (UniProt Q96EP0)) | 0
AVPSGLEENLCKICMDSPIDCVLLECGHMVTCTKCGKRMNECPICRQYVIRAVHVF (RFFL RING domain (UniProt Q8WZ73)) | 0

Set 4
Target: Ras GTPase-activating protein-binding protein 1, full length (G3BP1, Homo sapiens, UniProt Q13283)
UniProt Q13283, sequence (whole entry, looked up): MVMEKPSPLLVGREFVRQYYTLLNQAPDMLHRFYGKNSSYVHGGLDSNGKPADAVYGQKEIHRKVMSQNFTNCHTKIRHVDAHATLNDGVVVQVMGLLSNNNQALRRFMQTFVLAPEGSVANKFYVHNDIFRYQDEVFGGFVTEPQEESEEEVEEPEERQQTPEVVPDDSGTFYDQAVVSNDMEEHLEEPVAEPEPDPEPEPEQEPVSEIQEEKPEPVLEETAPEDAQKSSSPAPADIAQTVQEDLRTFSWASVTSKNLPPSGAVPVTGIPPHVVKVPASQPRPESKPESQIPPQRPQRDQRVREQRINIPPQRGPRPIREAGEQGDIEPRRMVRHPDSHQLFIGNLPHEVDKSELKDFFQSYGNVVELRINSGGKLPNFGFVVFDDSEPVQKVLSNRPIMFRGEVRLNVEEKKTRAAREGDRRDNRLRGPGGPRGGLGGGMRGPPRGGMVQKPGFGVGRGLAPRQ
Technique: RNA Bind-n-Seq
Form: RNA
Matrix: in vitro
Concentration: 200 nM
Notes: whole 134-nt RNA, ends assumed
With: 150 mM KCl
Baseline: input library
Direction: higher = stronger binding
Sequence | log2 enrichment
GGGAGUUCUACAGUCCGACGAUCUCCUGUGCUACACAUCGUAUGUACCGAAUCGGGUUUUUUGGGUUUUUUGGUUUUUUGGGGAAAGUAUUAUGUUACGCCGUUCGGAUCUGCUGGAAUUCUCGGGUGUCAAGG | -0.547
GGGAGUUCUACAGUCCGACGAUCACCAUGCAGGUGGGCAUCUUUGGGAAGUGGGGCAAGGGGGGGAUAGGGAGGGGGGUAACUCUUUGGGAACAGGUGGUCCCAGGUCGUUUCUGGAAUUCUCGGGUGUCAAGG | 1.3
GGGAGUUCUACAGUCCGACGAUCUGGGGAGACUACGAUGACAGCGCCUUCAUGGAGCCCAGGUACCACGUCCGUGGAGAAGAUCUGGACAAGCUCCACAGAGCUGCCUGGUGGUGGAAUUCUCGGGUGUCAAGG | -1.45
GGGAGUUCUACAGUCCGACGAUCACCAUGCAGGUGGGCAUCUUUGGGAAGUGGGGCAAGGGGGGGAUAGGGAGGGGGGUAACACUUUGGGAACAGGUGGUCCCAGGUCGCUUCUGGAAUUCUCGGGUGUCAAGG | 1.43
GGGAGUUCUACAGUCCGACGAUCUUAGGCACUUGUUGGGCUCAUCACCGUUGUGUGGAGUGGUCACUAGGAGUAUGCCAGAUGGAAGAACCAUUGUUAGUGAACGUGGACAAAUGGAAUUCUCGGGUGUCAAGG | -1.99
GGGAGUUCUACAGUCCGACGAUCAGUCCUGUGCUACACAUCGUAUGUACCGAAUCGGGAAAAAGGGAAAAAAAGGGUGGGAAAGUAUUAUGUUACGCCGUUCGGAUCUGCACUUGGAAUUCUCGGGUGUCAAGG | 0.0725
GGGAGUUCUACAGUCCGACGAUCCACAGACAACACGCACCCACACAGACACAGAGGGAAGGGGUUGGGAUGGGGACAGGGUGCACAGCAGGGCGGGGUAGGACCCCAGGCCCUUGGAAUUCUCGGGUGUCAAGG | 1.81
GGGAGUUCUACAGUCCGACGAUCAAGUCCUGUGCUACACAUCGUAUGUACCGAAUCAAACCCCCAAACCCAAACCCAAAAAAGUAUUAUGUUACGCCGUUCGGAUCUGCACUUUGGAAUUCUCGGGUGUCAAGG | -0.603
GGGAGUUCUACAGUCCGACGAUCCUGUGCUACACAUCGUAUGUACCGAAUCGGGUUUUUUUGGGAAAAAAAGGGUUUUUUUGGGAAAGUAUUAUGUUACGCCGUUCGGAUCUGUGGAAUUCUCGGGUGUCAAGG | -1.41
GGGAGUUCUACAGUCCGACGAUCUGGGAGGUGGAUUUUGUUUAUUUUUUUAGCUCGUUUCCAGGGGUGGGAAUUUUUUUUUAAUAUGUGUCAUGAAUAAAGUUGUUUUUGAAAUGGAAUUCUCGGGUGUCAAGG | 0.246
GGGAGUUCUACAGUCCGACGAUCUCCUCAAGUCCUGUGCUACACAUCGUAUGUACCGAAUCGGGGUGGUGGGUGGAAAGUAUUAUGUUACGCCGUUCGGAUCUGCACUUCCAGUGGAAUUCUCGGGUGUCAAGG | 0.69
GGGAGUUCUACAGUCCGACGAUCUAACUUUAGAGGAGGAUCUGAUGGAUAUGGCAGUGGACGUGGAUUUGAGGAUGGCUAUAAUGGGUAUGGAGGAGGACCUGGAGGUGGCAAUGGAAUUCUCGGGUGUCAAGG | 0.327
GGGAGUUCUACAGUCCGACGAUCAAGUCCUGUGCUACACAUCGUAUGUACCGAAUCGGGAAAAAAAGGGAGGGUUUGGGAAAGUAUUAUGUUACGCCGUUCGGAUCUGCACUUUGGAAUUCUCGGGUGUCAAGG | 0.129
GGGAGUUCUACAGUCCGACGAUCGCUGGAAGUAAAAACAAAUGGAAAUGCUUCGGAUAGUGGCAGGGGUGGGGGUUGCUAAGGAAAGGGUGGGAUGGGAGUGGGUAAAGAGUUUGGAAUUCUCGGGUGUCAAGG | 1.14

Set 5
Target: CCND1, cyclin fold, Cln2 fusion (human)
Technique: yeast growth competition, sequencing
Matrix: yeast
Notes: weak parent motif
Baseline: not given
Direction: higher = stronger binding
Parent: ORC1 docking peptide (human); PRARKRLELGNLG; partner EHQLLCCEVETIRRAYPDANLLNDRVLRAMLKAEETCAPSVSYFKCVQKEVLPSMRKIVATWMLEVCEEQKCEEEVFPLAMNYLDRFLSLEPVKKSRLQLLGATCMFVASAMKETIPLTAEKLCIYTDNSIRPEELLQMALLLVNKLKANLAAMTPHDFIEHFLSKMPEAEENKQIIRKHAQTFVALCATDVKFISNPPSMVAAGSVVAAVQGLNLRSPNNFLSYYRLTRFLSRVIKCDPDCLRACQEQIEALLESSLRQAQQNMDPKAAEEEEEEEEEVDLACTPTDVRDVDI
Change | normalised enrichment score
PRARKRLELGNLI [G13I] | -0.00816
PRARKRLELGILG [N11I] | -0.517
PRARYRLELGNLG [K5Y] | -0.244
PRARKNLELGNLG [R6N] | -0.0308
PRARSRLELGNLG [K5S] | 0.00381
PRARKRHELGNLG [L7H] | -0.582
PRAFKRLELGNLG [R4F] | -0.172
PRWRKRLELGNLG [A3W] | 0.233
PRARKFLELGNLG [R6F] | 0.509
PRKRKRLELGNLG [A3K] | 0.4
KRARKRLELGNLG [P1K] | 0.368
MRARKRLELGNLG [P1M] | -0.475
PRARKRAELGNLG [L7A] | -0.142
PRARKRLELGNLC [G13C] | 0.0581
PRARKRLEWGNLG [L9W] | -0.0232
PRARKRLELGNDG [L12D] | -0.455

Set 6
Target: RING finger protein unkempt homolog, zinc fingers 1-6, GST-SBP tag (UNK, Homo sapiens, UniProt Q9C0B0, residues 30-357)
UniProt Q9C0B0, sequence (30-357, looked up): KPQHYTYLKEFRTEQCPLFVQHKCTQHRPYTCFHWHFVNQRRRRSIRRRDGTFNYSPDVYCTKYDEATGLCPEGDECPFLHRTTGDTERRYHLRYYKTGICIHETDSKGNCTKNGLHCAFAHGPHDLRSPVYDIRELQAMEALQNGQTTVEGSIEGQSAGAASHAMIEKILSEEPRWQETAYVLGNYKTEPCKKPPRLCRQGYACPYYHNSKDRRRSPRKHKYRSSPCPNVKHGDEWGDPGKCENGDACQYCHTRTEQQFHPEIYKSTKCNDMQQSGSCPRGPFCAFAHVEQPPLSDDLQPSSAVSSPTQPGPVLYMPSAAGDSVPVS
Technique: RNA Bind-n-Seq
Form: RNA
Matrix: in vitro
Concentration: not given
Notes: RNA with constant flanks, human-mouse chimeric sites, ends assumed
Baseline: input RNA pool
Direction: higher = stronger binding
Sequence | bound/input enrichment
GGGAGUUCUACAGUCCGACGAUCAAAGAGAAUGGAGAAGUAAAGAUUUUACUGAAAAGUGGGAAGGAGAAACCAAAAACAAAUAUAGAAGACUUACAAAUUAAAAAAGUAAAGAAGAAAAAGAAAAAGAAACACAAAGAGAAUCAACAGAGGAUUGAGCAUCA | 19.6 ratio
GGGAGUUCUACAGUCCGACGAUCUCUGGUCAUACUCGUGCGUAUGGUGUUUGCUUUGUGGACACUUCACUGGGAAAGUUUUUCAUCGGCCAGUUUUCGGAUGACCGCCACUGUUCCAGAUUUAGGACGCUAGUGGCUCACUAUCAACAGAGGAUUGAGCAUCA | 0.248 ratio
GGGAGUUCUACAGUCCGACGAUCUUUGUAUUUAUGCUAAGCACACGUGCUGGUGGUCUGGGCAUCAAUCUUGCAACUGCUGAUGUAGUCAUUUUGUAUGACUCAGAUUGGAAUCCCCAAGUUGAUCUUCAGGCUAUGGACCGUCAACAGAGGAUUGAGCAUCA | 0.113 ratio
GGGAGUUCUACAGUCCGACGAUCAAAGCCCAAGUAUUUUGAAAAAAUUCAAACAGAUUUGACAAGGGUAGCCAGCUUGGAGUCUAGCAACUUGCCAAUGUGUUUACCAAUCUGGGGGCUUGUUUUUCUUUUCUUCUUUCAAAUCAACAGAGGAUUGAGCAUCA | 0.369 ratio
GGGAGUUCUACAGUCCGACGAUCCUCAUGGCUGCAGAAACAGGAAGUGGAAAAACUGGUGCAUUUAGUAUUCCAGUUAUCCAGAUAGUUUAUGAAACUCUGAAAGACCAACAGGAAGGAAAGAAAGGGAAAACAACUAUUAAACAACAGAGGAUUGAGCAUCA | 0.391 ratio
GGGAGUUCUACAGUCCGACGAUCACCAUUUUCGCGGUUCAGGCUUUGUGUGUAGUUCACUUACGGUAUUAAAUUAUUAUUCUGCUUAGCUUAUAAUAAGGAUAAUUGCAUGAUUUAAGUAGAUCACUGAAUACUCUGAAACUUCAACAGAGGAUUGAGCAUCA | 0.616 ratio
